# Assay results from different studies.
# Lines come from different studies, so protocols differ.
# Organism: Bacillus subtilis
SMILES,technique,strain,time,temperature,MIC
CC(C)C[C@H](NC(=O)[C@@H](NC(=O)[C@H](CCCNC(=N)N)NC(=O)[C@H](CCC(N)=O)NC(=O)[C@H](Cc1ccccc1)NC(=O)[C@H](Cc1ccc(O)cc1)NC(=O)[C@H](CC(N)=O)NC(=O)[C@H](Cc1c[nH]c2ccccc12)NC(=O)[C@@H](NC(=O)[C@H](CCCNC(=N)N)NC(=O)[C@H](CCCCN)NC(=O)[C@@H](N)Cc1ccccc1)C(C)C)C(C)C)C(=O)N[C@H](C(=O)N[C@@H](CCCCN)C(=O)N[C@@H](CCCCN)C(N)=O)C(C)C,broth dilution,KCTC 3068,,,3.1 µM
CCCCCCCCCC(=O)N[C@@H](Cc1c[nH]c2ccccc12)C(=O)N[C@H](CC(N)=O)C(=O)N[C@@H](CC(=O)O)C(=O)N[C@@H]1C(=O)NCC(=O)N[C@@H](CCCN)C(=O)N[C@@H](CC(=O)O)C(=O)N[C@H](C)C(=O)N[C@@H](CC(=O)O)C(=O)NCC(=O)N[C@H](CO)C(=O)N[C@@H]([C@H](C)CC(=O)O)C(=O)N[C@@H](CC(=O)c2ccccc2N)C(=O)O[C@@H]1C,broth microdilution,ATCC 6633,24 h,,7.7 µM
CC[C@H](C)[C@H](NC(=O)CN)C(=O)NCC(=O)N[C@@H](CCCCN)C(=O)N[C@@H](Cc1ccccc1)C(=O)N[C@@H](CC(C)C)C(=O)N[C@@H](CCCCN)C(=O)N[C@@H](CCCCN)C(=O)N[C@@H](C)C(=O)N[C@@H](CCCCN)C(=O)N[C@@H](CCCCN)C(=O)N[C@@H](Cc1ccccc1)C(=O)NCC(=O)N[C@@H](CCCCN)C(=O)N[C@@H](C)C(=O)N[C@@H](Cc1ccccc1)C(=O)N[C@H](C(=O)N[C@@H](CCCCN)C(=O)N[C@H](C(=O)N[C@@H](CC(C)C)C(=O)N[C@@H](CCCCN)C(=O)N[C@@H](CCCCN)C(N)=O)[C@@H](C)CC)C(C)C,broth dilution,KCTC 3068,,,6.3 µM
CCCCCCCCCCCCCCCC(=O)NS(=O)(=O)OCC,,ATCC 23857,,,> 200 µg/mL
N=C(N)NCCC[C@H](NC(=O)[C@H](Cc1c[nH]c2ccccc12)NC(=O)[C@@H](N)CCCNC(=N)N)C(=O)N[C@@H](Cc1c[nH]c2ccccc12)C(=O)N[C@@H](CCC(N)=O)C(=O)N[C@@H](Cc1ccccc1)C(=O)N[C@@H](CCC(N)=O)C(=O)N[C@@H](Cc1ccccc1)C(=O)N[C@@H](CCCCN)C(N)=O,"broth microdilution, optical density",,,,19 µM
CCCCCCCCCCCCCCCC(=O)NS(=O)(=O)OCCCC,,ATCC 23857,,,> 200 µg/mL
CC[C@H](C)[C@H](NC(=O)[C@H](CC(C)C)NC(=O)[C@H](CCCCN)NC(=O)[C@@H](NC(=O)[C@H](C)NC(=O)[C@H](CCC(=O)O)NC(=O)[C@H](Cc1c[nH]cn1)NC(=O)[C@@H](NC(=O)[C@H](CCCCN)NC(=O)[C@H](CCC(N)=O)NC(=O)[C@H](Cc1ccccc1)NC(=O)[C@@H](NC(=O)[C@H](CCCCN)NC(=O)[C@H](CCCCN)NC(=O)[C@H](CC(C)C)NC(=O)[C@H](C)N)C(C)C)[C@@H](C)CC)[C@@H](C)CC)C(N)=O,broth microdilution,KCTC 1998,18 h,37 °C,8 µM
N=C(N)NCCC[C@H](NC(=O)[C@@H](N)CCCNC(=N)N)C(=O)N[C@@H](Cc1c[nH]c2ccccc12)C(=O)N[C@@H](Cc1c[nH]c2ccccc12)C(=O)N[C@@H](Cc1ccccc1)C(=O)N[C@@H](CCC(N)=O)C(=O)N[C@@H](Cc1ccccc1)C(=O)N[C@@H](CCC(N)=O)C(=O)N[C@@H](Cc1ccccc1)C(=O)N[C@@H](CCCCN)C(N)=O,"broth microdilution, optical density",,,,71 µM
Cc1ccc2[nH]c3c(c2c1)CCCC3NCCc1ccc(Br)cc1 (stereo not drawn),broth microdilution,168,,,4 µg/mL
